Assay results of several laboratories.
A part holds a random share of what one study measured.
Sequence of UniProt Q96J92 (whole entry, looked up): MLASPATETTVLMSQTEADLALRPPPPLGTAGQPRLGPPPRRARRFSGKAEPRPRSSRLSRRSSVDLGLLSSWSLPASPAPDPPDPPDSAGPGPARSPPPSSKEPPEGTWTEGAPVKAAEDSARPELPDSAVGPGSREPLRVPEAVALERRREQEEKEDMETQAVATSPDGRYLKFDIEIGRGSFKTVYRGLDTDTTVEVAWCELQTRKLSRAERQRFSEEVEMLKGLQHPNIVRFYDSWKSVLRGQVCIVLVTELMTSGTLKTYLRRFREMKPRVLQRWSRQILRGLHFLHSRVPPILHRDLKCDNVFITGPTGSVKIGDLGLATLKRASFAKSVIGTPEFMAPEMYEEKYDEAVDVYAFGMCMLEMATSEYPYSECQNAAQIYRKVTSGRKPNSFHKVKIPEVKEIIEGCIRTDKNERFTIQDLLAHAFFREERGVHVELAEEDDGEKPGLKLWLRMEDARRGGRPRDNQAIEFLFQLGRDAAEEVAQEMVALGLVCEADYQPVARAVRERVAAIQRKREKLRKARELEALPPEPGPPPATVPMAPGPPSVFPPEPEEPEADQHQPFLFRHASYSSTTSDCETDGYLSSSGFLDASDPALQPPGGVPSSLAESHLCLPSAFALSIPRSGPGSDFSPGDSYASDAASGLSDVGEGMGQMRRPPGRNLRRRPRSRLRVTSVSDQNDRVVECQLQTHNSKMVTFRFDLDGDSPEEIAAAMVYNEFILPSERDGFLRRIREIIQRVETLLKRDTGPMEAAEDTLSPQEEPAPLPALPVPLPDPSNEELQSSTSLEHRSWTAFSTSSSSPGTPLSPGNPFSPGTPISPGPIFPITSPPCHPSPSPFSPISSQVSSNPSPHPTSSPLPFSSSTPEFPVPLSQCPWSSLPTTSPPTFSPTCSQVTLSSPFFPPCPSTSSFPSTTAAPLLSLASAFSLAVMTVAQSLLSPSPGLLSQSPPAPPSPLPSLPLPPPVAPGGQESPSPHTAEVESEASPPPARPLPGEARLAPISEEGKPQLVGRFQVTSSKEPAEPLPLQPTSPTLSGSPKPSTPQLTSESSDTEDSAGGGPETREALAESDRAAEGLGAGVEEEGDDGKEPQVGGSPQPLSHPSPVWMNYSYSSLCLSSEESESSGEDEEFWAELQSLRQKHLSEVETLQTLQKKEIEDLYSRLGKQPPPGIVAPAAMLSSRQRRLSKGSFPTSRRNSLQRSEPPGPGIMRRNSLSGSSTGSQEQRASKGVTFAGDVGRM
Sequence of UniProt Q9NSY1 (whole entry, looked up): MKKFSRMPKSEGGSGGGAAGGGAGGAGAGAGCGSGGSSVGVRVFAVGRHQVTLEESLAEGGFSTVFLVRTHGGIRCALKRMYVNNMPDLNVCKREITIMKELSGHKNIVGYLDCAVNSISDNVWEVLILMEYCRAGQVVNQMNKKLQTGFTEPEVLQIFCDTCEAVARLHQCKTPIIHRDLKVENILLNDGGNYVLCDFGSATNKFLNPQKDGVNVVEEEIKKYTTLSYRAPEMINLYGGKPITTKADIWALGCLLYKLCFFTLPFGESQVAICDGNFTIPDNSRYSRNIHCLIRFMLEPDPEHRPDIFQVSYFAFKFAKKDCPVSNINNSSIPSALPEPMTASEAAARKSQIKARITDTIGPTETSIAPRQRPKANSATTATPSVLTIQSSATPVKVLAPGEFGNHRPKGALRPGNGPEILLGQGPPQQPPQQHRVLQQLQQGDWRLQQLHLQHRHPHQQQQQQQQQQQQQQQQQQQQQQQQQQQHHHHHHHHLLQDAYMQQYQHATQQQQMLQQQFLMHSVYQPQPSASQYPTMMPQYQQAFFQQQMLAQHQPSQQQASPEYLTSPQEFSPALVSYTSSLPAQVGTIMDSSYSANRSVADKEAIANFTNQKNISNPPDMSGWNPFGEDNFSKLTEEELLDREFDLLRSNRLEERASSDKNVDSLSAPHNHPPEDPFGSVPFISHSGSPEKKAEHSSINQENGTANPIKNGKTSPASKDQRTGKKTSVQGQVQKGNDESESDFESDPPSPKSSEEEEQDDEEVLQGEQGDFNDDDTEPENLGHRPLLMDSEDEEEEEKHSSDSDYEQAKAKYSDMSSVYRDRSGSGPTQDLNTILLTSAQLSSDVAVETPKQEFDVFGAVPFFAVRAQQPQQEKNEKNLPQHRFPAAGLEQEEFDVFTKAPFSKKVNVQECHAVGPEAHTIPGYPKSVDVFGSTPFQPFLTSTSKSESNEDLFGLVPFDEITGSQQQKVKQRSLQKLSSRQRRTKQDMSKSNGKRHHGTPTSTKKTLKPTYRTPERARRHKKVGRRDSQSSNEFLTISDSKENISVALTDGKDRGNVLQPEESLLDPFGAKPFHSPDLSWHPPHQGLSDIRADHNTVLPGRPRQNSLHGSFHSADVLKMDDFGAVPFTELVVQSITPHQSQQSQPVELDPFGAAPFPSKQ
Sequence of UniProt O43293 (whole entry, looked up): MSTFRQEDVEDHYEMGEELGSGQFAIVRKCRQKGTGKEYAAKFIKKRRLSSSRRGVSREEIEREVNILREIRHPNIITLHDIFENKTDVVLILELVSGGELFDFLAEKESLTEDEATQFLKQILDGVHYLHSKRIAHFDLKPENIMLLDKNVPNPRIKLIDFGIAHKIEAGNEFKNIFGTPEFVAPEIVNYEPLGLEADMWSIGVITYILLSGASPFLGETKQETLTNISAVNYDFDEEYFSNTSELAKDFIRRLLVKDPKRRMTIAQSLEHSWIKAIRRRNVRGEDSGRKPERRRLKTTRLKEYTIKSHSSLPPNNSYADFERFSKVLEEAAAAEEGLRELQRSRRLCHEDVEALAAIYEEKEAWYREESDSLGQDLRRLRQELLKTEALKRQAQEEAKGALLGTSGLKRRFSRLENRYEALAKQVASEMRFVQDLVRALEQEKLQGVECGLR
Sequence of UniProt Q05655 (whole entry, looked up): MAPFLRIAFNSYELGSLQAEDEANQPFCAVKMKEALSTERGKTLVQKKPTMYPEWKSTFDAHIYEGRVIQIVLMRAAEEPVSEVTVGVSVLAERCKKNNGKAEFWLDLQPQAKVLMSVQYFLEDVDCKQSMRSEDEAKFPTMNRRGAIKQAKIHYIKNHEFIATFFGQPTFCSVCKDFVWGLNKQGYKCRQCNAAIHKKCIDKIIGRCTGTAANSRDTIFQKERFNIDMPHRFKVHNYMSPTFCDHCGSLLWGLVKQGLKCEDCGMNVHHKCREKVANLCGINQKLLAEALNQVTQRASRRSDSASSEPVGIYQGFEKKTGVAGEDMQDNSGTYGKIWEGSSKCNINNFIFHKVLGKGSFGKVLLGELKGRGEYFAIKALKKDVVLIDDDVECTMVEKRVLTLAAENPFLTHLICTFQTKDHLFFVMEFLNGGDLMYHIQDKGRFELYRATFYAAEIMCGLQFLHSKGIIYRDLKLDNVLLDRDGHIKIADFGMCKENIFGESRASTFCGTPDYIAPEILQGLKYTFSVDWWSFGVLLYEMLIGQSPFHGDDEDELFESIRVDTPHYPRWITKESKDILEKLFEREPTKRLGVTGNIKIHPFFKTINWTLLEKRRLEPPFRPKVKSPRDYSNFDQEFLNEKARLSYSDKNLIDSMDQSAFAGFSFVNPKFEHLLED
Sequence of UniProt Q92772 (whole entry, looked up): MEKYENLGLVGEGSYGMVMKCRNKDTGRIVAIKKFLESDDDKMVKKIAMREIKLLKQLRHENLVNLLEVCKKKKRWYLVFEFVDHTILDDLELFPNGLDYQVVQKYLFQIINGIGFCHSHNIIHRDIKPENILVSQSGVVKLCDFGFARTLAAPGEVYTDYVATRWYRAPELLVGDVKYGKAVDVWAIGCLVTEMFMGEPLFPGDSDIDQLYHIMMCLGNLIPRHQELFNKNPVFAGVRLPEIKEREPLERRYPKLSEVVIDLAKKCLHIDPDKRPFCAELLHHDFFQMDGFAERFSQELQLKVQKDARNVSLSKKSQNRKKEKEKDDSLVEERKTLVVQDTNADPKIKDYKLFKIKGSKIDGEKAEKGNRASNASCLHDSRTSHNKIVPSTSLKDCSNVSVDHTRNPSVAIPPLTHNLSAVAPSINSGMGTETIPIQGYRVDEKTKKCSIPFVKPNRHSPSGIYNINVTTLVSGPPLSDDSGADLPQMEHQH
Sequence of UniProt Q9H1R3 (whole entry, looked up): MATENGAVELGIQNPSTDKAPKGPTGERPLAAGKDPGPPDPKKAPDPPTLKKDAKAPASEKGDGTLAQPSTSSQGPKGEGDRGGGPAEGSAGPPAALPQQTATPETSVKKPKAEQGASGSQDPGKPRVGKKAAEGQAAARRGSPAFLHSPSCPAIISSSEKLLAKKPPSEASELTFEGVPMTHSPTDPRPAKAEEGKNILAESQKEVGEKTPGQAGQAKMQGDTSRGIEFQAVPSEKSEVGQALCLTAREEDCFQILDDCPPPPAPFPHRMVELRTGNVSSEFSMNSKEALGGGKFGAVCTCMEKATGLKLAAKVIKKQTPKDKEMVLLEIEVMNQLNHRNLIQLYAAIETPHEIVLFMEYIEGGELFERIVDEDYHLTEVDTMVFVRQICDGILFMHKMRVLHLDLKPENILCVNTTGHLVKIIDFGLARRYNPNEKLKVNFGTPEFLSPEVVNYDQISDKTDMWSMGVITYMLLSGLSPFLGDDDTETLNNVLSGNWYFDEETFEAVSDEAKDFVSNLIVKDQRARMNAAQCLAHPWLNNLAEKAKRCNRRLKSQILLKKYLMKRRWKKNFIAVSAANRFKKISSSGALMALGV
Sequence of UniProt P53778 (whole entry, looked up): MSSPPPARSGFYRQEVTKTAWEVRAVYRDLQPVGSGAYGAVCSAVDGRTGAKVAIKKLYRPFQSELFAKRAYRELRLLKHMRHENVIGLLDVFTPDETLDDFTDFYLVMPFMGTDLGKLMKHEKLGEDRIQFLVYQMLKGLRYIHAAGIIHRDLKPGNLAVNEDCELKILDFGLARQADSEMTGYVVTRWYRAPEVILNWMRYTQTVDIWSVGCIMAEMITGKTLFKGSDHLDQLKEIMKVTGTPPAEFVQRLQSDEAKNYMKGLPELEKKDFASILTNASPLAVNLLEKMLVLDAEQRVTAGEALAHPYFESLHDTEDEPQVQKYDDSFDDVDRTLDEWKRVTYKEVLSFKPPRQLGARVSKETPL

Sample 1 — observed: peptide-MHC binding; form: peptide; tested at: concentration not given
Target: HLA class I histocompatibility antigen, A alpha chain, allele A*25:01 (Homo sapiens, UniProt P04439)
Sequence	binding
AKIALAVYK	inactive
MPDTLFEGV	inactive
TQIPRQMVL	inactive
RTFGQPLFF	inactive
LESLTDREL	inactive
FDLFGITLY	inactive
EDFEIFYNL	inactive
PPPPLQHPI	inactive

Sample 2 — organism: Sarcocystis neurona; observed: parasite growth; tested at: 10 µM
Structure (SMILES)	inhibition [%]
C[C@]12Cc3c[nH]nc3C[C@@H]1CC[C@@H]1[C@@H]2CC[C@@]2(C)[C@H]1CC[C@]2(C)O	10.2
COc1cc2c(cc1OC)[C@@]13CCN4CC5=CCO[C@H]6CC(=O)N2[C@H]1[C@H]6[C@H]5C[C@H]43	7.4
CCN(C(C)=O)c1cccc(-c2ccnc3c(C#N)cnn23)c1	-22
CCOC(=O)C1(c2ccccc2)CCN(CCC(C#N)(c2ccccc2)c2ccccc2)CC1	9.1

Sample 3 — observed: cell-free assay; method: competition with immobilised ligand; tested at: 1 µM
Compound: N#CC1(c2ccccn2)CCN(Cc2cc(C(=O)O)c(=O)n3ccccc23)CC1
target	remaining binding [%]
Serine/threonine-protein kinase Sgk2 (SGK2, Homo sapiens, UniProt Q9HBY8)	86
Mitogen-activated protein kinase kinase kinase 7 (MAP3K7, Homo sapiens, UniProt O43318)	90
Myosin light chain kinase 2, skeletal/cardiac muscle (MYLK2, Homo sapiens, UniProt Q9H1R3)	94
Uncharacterized serine/threonine-protein kinase SBK3 (SBK3, Homo sapiens, UniProt P0C264)	72
Leucine-rich repeat serine/threonine-protein kinase 2 (LRRK2, Homo sapiens, UniProt Q5S007)	65
Death-associated protein kinase 3 (DAPK3, Homo sapiens, UniProt O43293)	95
Receptor-type tyrosine-protein kinase FLT3 (FLT3, Homo sapiens, UniProt P36888, N841I)	97
Serine/threonine-protein kinase WNK4 (WNK4, Homo sapiens, UniProt Q96J92)	75
Citron Rho-interacting kinase (CIT, Homo sapiens, UniProt O14578)	98
Myosin light chain kinase, smooth muscle (MYLK, Homo sapiens, UniProt Q15746)	87
SRSF protein kinase 3 (SRPK3, Homo sapiens, UniProt Q9UPE1)	95
Protein kinase C delta type (PRKCD, Homo sapiens, UniProt Q05655)	100
Phosphatidylinositol 4,5-bisphosphate 3-kinase catalytic subunit delta isoform (PIK3CD, Homo sapiens, UniProt O00329)	91
Cyclin-dependent kinase-like 2 (CDKL2, Homo sapiens, UniProt Q92772)	100
BMP-2-inducible protein kinase (BMP2K, Homo sapiens, UniProt Q9NSY1)	95
Mitogen-activated protein kinase 12 (MAPK12, Homo sapiens, UniProt P53778)	78
Serine/threonine-protein kinase tousled-like 1 (TLK1, Homo sapiens, UniProt Q9UKI8)	97
Receptor-type tyrosine-protein kinase FLT3 (FLT3, Homo sapiens, UniProt P36888, D835V/ITD)	94

Sample 4 — cell line: HaCaT; tested at: 100 µM; time: 36 h
Compound	viability [%]
Cc1c(N)nc([C@H](CC(N)=O)NC[C@H](N)C(N)=O)nc1C(=O)N[C@H](C(=O)N[C@H](C)[C@@H](O)[C@H](C)C(=O)N[C@H](C(=O)NCCc1nc(-c2nc(C(=O)NCCC[S+](C)C)cs2)cs1)[C@@H](C)O)[C@@H](O[C@@H]1O[C@@H](CO)[C@@H](O)[C@H](O)[C@@H]1O[C@H]1O[C@H](CO)[C@@H](O)[C@H](OC(N)=O)[C@@H]1O)c1c[nH]cn1	44.7
CC[C@]12C=CCN3CC[C@]4(C(=C(C(=O)OC)C1)Nc1ccccc14)[C@@H]32	7.58
CC[C@@H](C(N)=O)N1CCCC1=O	92.1

Sample 5 — target: UBE2D4 UBC core domain (UniProt Q9Y2X8); method: yeast two-hybrid; sample: yeast; setting: mostly zero background; relative to: not given; direction: higher = stronger interaction
B1: TRIM22 RING domain (UniProt Q8IYM9); chain KEVKMSPQEGQKRDVCEHHGKKLQIFCKEDGKVICWVCELSQEHQGHQTFRINEVVKECQEK
B2: PRKN RING domain (UniProt O60260); chain LIATNSRNITCITCTDVRSPVLVFQCNSRHVICLDCFHLYCVTRLNDRQFVHDPQLGYSLPCVAGCPNSLIKELHH
B3: TRIM48 RING domain (UniProt Q8IWZ4); chain ISQVFQRELTCPICMNYFIDPVTIDCGHSFCRPCFYLNWQDIPILTQCFECIKTIQQRNLKT
B4: RNF135 RING domain (UniProt Q8IUD6); chain PVWLAEDDLGCIICQGLLDWPATLPCGHSFCRHCLEALWGARDARRWACPTCRQGAAQQPHLR
B5: ZNRF3 RING domain (UniProt Q9ULT6); chain DTLSSSSTSDCAICLEKYIDGEELRVIPCTHRFHRKCVDPWLLQHHTCPHCRHNIIEQKGNP
Target sequence (chain): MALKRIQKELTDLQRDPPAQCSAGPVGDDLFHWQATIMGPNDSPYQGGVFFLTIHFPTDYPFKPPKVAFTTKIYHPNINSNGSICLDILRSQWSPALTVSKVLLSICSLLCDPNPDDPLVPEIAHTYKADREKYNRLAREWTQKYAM
Sequence	lacZ reporter activity
KEQLEKHNDICAICYQDMKSAVITPCSHFFHAGCLKKWLYVQETCPLCHCHLKNSSQLP (RNF145 RING domain (UniProt Q96MT1))	0
B1 (TRIM22 RING domain)	0
B2 (PRKN RING domain)	0
B3 (TRIM48 RING domain)	0
B4 (RNF135 RING domain)	0
MDDQGCPRCKTTKYRNPSLKLMVNVCGHTLCESCVDLLFVRGAGNCPECGTPLRKSNFRV (MNAT1 RING domain (UniProt P51948))	0
B5 (ZNRF3 RING domain)	0
KLWDINAHITCRLCSGYLIDATTVTECLHTFCRSCLVKYLEENNTCPTCRIVIHQSHPLQ (PCGF3 RING domain (UniProt Q3KNV8))	0

Further values, each from its own experiment
Molecule	tested on	assay	conditions	scale	endpoint	result
CN1CCN(C(=O)OC2c3nccnc3C(=O)N2c2ccc(Cl)cn2)CC1 (stereo not shown)	mouse MPNST tumor cells	high-content immunofluorescence imaging, measured: nuclear SOX9	10 µM, 12 h, mean of 2 replicates	relative to: DMSO control, higher = more nuclear SOX9	nuclear SOX9 intensity	91.5 % of DMSO
SND1 (Homo sapiens, UniProt Q7KZF4)	LRRC59 (Homo sapiens, UniProt Q96AG4)	cross-linking MS	hits only	–	interaction screen	cross-linked

A few entries again (sample 5):
Sequence	lacZ reporter activity
B5 (ZNRF3 RING domain)	0
KEQLEKHNDICAICYQDMKSAVITPCSHFFHAGCLKKWLYVQETCPLCHCHLKNSSQLP (RNF145 RING domain (UniProt Q96MT1))	0
B1 (TRIM22 RING domain)	0
MDDQGCPRCKTTKYRNPSLKLMVNVCGHTLCESCVDLLFVRGAGNCPECGTPLRKSNFRV (MNAT1 RING domain (UniProt P51948))	0
KLWDINAHITCRLCSGYLIDATTVTECLHTFCRSCLVKYLEENNTCPTCRIVIHQSHPLQ (PCGF3 RING domain (UniProt Q3KNV8))	0
B4 (RNF135 RING domain)	0
